Assay results gathered from unrelated publications.
Every numbered part comes from another study and shows a few of its results, in no order. Substitutions count along the parent as printed.
UniProt Q8N2K1, sequence (whole entry, looked up): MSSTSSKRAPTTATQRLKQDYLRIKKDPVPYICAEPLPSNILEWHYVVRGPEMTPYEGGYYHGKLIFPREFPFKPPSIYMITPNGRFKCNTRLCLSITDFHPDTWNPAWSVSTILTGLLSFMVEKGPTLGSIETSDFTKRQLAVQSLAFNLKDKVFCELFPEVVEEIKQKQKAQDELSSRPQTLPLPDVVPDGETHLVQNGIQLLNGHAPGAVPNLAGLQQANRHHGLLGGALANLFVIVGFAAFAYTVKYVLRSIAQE
UniProt P51668, sequence (whole entry, looked up): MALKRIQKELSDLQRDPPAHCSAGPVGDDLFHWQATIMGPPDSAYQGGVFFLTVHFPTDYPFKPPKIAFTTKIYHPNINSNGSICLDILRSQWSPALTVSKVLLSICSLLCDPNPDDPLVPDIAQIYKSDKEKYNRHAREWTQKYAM
UniProt Q9NPD8, sequence (whole entry, looked up): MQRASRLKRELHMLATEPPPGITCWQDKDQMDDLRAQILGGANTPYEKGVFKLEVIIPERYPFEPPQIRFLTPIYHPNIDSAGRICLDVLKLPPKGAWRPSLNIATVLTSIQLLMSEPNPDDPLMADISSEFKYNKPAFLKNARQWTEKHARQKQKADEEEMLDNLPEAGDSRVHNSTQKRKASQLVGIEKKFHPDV
UniProt P63146, sequence (whole entry, looked up): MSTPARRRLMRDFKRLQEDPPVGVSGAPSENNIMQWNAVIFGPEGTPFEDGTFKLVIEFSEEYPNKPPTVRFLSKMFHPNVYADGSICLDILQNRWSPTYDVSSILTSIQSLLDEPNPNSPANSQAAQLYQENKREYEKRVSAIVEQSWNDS
UniProt P68036, sequence (whole entry, looked up): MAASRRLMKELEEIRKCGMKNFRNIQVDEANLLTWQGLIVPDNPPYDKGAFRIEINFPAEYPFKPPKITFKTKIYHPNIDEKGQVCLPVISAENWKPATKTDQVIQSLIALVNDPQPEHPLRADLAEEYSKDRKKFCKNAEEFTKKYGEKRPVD
UniProt P61081, sequence (whole entry, looked up): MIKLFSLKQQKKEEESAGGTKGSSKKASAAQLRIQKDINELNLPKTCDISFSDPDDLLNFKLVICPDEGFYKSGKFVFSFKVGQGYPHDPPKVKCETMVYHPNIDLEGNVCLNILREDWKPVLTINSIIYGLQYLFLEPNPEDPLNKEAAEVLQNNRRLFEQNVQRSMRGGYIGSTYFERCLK
UniProt Q7Z7E8, sequence (whole entry, looked up): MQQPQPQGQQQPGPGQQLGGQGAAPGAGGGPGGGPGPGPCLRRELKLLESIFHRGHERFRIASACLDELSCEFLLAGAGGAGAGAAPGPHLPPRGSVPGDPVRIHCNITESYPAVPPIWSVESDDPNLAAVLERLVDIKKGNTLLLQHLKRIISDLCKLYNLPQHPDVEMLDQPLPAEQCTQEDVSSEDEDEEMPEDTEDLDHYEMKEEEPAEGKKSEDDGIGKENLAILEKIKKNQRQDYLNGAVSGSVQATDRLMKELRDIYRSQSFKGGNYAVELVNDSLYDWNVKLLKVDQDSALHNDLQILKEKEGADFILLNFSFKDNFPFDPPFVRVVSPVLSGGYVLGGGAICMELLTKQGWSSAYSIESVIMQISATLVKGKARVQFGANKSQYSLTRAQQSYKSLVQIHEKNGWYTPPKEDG
UniProt Q969T4, sequence (whole entry, looked up): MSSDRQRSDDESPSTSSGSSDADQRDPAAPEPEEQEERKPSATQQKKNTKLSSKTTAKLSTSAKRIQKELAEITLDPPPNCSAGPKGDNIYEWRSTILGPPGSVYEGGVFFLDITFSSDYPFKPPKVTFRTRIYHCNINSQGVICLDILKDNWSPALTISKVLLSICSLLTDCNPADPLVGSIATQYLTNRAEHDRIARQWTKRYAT

Study 1
Target: Histone acetyltransferase KAT6A, winged helix 2, GST fusion (KAT6A, Homo sapiens, UniProt Q92794, residues 85-181)
Technique: protein binding microarray
Form: double-stranded DNA, one strand shown
Matrix: in vitro
Concentration: not given
Notes: 8-mer, flanks averaged, mean of 2 arrays, mostly near background
Reference: not given
Direction: higher = stronger binding
Construct (chain): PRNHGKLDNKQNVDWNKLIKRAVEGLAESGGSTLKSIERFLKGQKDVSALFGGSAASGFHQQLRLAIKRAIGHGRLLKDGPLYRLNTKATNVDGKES
Strand	E-score
CTGGCATC	-0.0988
AGGTACAT	-0.171
CCCACTGA	0.0453
CAGGTATG	-0.0256
AACTATTG	0.0488
ACCTCTGC	-0.109
AACTATCC	-0.136
GTATGCCA	-0.0685
CTCGTGTA	0.0629
ACATTCAA	-0.121
AATTAGTC	-0.0672
CAGAAATG	0.0578
CACCGCTC	-0.0213
GGAGATGA	0.00971
CCTTCAGA	-0.178
AAGCCTCC	0.122
TCAGGCGA	0.0985
TCCGACCA	-0.0192
ACCACAGT	0.127
AATTGACG	-0.114
AACTACTC	0.00653
CGTAATAC	0.0199

Study 2
Molecule: B1 (Ltn1 RING domain)
Technique: yeast two-hybrid
Matrix: yeast
Notes: mostly zero background
Reference: not given
Direction: higher = stronger interaction
B1: Ltn1 RING domain (UniProt Q6A009); chain VDKRFEGVEDCMICFSVIHGFNYSLPKKACRTCKKKFHSACLYKWFTSSNKSTCPLCRETFF
target	lacZ reporter activity
UBE2T UBC core domain (UniProt Q9NPD8)	0
UBE2M UBC core domain (UniProt P61081)	0
UBE2D1 UBC core domain (UniProt P51668)	0
UBE2L3 UBC core domain (UniProt P68036)	0
UBE2I UBC core domain (UniProt P63279)	0
UBE2B UBC core domain (UniProt P63146)	0
UBE2Q1 UBC core domain (UniProt Q7Z7E8)	0
UBE2E3 UBC core domain (UniProt Q969T4)	0
UBE2J2 UBC core domain (UniProt Q8N2K1)	0

Study 3
Target: Sal-like protein 4, full length isoform B (SALL4, Homo sapiens, UniProt Q9UJQ4-2, residues 1-616)
Technique: universal PBM
Form: double-stranded DNA, one strand shown
Matrix: in vitro
Concentration: not given
Notes: 8-mer, flanks averaged, mean of replicates
Direction: higher = stronger binding
Strand	E-score
ACTTTGCA	0.0842
CTTGGCTC	-0.0895
CCACCTTC	-0.132
GGTATCAA	0.0725
ATACTTAA	0.333
CAGTGCGC	-0.26
ACCACTAC	-0.0597
CCTATTGC	0.0416
CATGCAGC	-0.0851
GAATTATA	0.386
TATCAGGA	0.211
GTGTTGCA	-0.062
GGAACAAA	0.164
AGAGACGG	-0.214
ACTTGACT	-0.0229
GCATTTCC	0.00023
GTCCCCTA	-0.181
GGGTGAAA	0.0059
GGAAAACA	0.167
ATAGAGAG	0.0274
TACGGTCA	-0.0786
GTAGCTGA	-0.153
ATCGGAGA	-0.0696
TAGAATAA	0.285
TCACTACA	0.13

Study 4
Target: RING finger protein unkempt homolog, zinc fingers 1-6, GST-SBP tag (UNK, Homo sapiens, UniProt Q9C0B0, residues 30-357)
UniProt Q9C0B0, sequence (30-357, looked up): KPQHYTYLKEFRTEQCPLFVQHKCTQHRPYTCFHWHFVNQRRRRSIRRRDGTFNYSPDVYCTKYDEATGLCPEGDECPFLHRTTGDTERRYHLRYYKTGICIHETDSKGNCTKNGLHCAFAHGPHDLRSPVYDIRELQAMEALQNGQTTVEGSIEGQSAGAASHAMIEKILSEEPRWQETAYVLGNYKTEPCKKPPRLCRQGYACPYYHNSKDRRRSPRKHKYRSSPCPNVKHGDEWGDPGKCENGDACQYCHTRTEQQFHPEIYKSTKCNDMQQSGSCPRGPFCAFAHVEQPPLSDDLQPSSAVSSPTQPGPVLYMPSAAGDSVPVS
Technique: RNA Bind-n-Seq
Form: RNA
Matrix: in vitro
Concentration: not given
Notes: RNA with constant flanks, human-mouse chimeric sites, ends assumed
Reference: input RNA pool
Direction: higher = stronger binding
Constant ends, left off below: GGGAGUUCUACAGUCCGACGAUC … CAACAGAGGAUUGAGCAUCA
Strand	bound/input enrichment
UGUAGUUUCUUGAUUUAGUGGCUGGGCCUUUUCUUUCUUUCCUUUAGGAAAAGCCUAAAGAUUAGGUUGUAAGAAAAGAAAAUAGAAUGUUUCGAAGACCUGUGUUACAGGUAUUUCGUC	2.29 ratio
UCUUAACGUCCAUUUAAAACUUAUUUUUAUAGCUAGAUAAAUAUUGUUAGUCUUAGACAAUAGCUCACAUUUUUUGAGAAGCAUGCCCUCCCUGUCCAUUUGUCUUAUAACAUGACCCAG	70.9 ratio
GACUUUGGGACUGGUCCUCGCAACGCAGCCUUCUAUAGCCCUCAUGGACAUAUAUUAGUAUUAGCUGGAUUUGGAAAUCUUCGAGGACAAAUGGAAGUAUGGGAUGUGAAAAACUACAAG	0.651 ratio
CUGAGGAUACCACUGAAGAGACCUUAAAAGAAUCAUUUUGACGGCUCGUUCGUGCAAGAAUAGUCACCUGACCGGGAACUGGUUCUUCCAAAGGGUUUGGUUUUGUAGACUUUAAUAGUG	0.645 ratio
UUAUCCAAGACUCAACGAAAGACUCCAACGGUUAUUCAUAAACAUUACCAAAUACAUCGGAUUCGACAUUUUUAUAUGAGAAAAGUCAAAUUUACUCAACAGAAUUACCAUGAUAGACUG	0.45 ratio
GGCUGCUGGUGACUGUCCUGGAGUGGCUGGAGUUCCCGCCGGAGCGCGGCCAGACUAAUUUUAGAAAAUGCCAAGUAGGAAGUUUGUUGAGGGUGAAGUGGUAAGAGGCCGAUGGCCUGG	9.61 ratio
GAUCAUGAACCACCAUCAGAAAUGAAGAUGAGAUUACCCAAGACGAGCCAAAACCGCGCGCUACAGAAAAGUAAACUUAACCUUGCAGAGUUCCUUAAUGAAGAUACAAGUUAAGAGAGC	0.161 ratio
AGUACUGACUCAGGCGGAUUUUGCAACACCAAGCUCACAGCAGCAGCAUCUUAGUCACAGUAGGGUAGUUUUGGGGCUCUGUGGCCAGGGUUUUAUUCACAUGCAGGUUUGGAAAAUGUA	2.03 ratio
UCAUUUUUCUCUUUUCUUUCUUUCCUUAAAAGCCUAACUAAAGAUUAGGUUGUAAGAAAAACAGAAGCCAUGUUUCGAAGACCUGUGUUACAGGUACUUCGUCAGUUUGUAAGACAUGAG	0.159 ratio
AUAGAUGAAAUUGAUGUGGACCAGGAAGGAAUUGCAGAAAUGAUCCUGGAUGAAAAUGCUAUUGCUCAGGUCCCACGCCCUGGCACAUCUUUGAAACUCCCUGGCACUAACCAAACAGGA	0.272 ratio
AGUUCCAAACCACCAUCAGAAAUGAAGAUGAGAUUACCCAGACGAGCCAAAACAGCUGCGCUACAGAAAAGUAAACUUAACCUUGCACCAAUUUCUCAUGAAGAUACAAGUUAAGAGAGC	0.342 ratio

Study 5
Target: JDP2, bZIP domain (human)
Technique: DHFR protein complementation
Matrix: yeast
Notes: single substitutions, most at no-binding floor
Reference: wild-type JUN-FOS pair
Direction: higher = stronger binding
Starting sequence: JUN, bZIP domain (human); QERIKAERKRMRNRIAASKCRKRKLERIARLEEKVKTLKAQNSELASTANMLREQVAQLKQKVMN; partner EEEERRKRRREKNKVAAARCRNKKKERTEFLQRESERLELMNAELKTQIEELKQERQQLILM
Variant	binding fitness [natural log]
T37M	0.411
T48M	0.219
I28T	0.23
S47F	0.29
M51T	0.348
Q55T	0.264
K36M	0.407
Q41V	0.228
A46G	0.21
L59P	-0.991
E44C	0.241
E33L	0.268
T37D	0.236
Q55H	0.304
R53S	0.218
L45M	0.236
A49L	0.252
T48C	0.243
R53W	0.127
R30H	0.33
K39N	0.301
Q58S	0.353
E44R	0.223
L52Y	0.21
R53T	0.234

Study 6
Target: ABI1, truncated, D143A, DHFR fusion (Arabidopsis thaliana)
Technique: DHFR PCA, deep sequencing
Matrix: yeast
Notes: methotrexate growth selection, single substitutions
Added: (+)-ABA 0.0091 µM
Reference: wild-type fitted maximum
Direction: higher = stronger binding
Starting sequence: PYL1, truncated, DHFR fusion (Arabidopsis thaliana); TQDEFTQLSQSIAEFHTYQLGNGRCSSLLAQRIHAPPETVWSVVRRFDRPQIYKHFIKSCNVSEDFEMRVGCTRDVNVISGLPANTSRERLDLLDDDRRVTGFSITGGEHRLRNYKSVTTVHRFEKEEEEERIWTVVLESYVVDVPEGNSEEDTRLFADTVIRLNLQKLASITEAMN; partner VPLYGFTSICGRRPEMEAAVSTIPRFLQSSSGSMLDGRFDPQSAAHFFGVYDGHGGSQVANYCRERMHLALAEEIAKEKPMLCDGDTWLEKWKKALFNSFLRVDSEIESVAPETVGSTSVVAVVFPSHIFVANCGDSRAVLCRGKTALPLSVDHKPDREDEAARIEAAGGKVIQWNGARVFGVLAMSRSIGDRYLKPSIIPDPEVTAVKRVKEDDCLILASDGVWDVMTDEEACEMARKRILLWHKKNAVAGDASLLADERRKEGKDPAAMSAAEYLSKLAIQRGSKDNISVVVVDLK
Variant	relative binding score [%]
V161L	61.2
V100F	-8.94
V137D	-8.19
R69K	62.4
A175P	1.18
A13F	1.86
H110Q	44.2
Q51R	4.48
G148E	3.97
T154M	7.98
G23V	-1.63
G107N	10.8
H16M	-1
E130C	28.4
T119H	-2.57
G108I	-7.82
Q10G	31.6
R113Q	43.5
N165K	3.21
V70E	6.66
V100T	-6.68
P37E	-1.94
E4V	31.8
K54E	-9.56
T39C	14.3

Repeated from above (study 1):
Strand	E-score
AACTATTG	0.0488
ACCTCTGC	-0.109
AACTATCC	-0.136
GTATGCCA	-0.0685
CTCGTGTA	0.0629
ACATTCAA	-0.121
AATTAGTC	-0.0672
CAGAAATG	0.0578
CACCGCTC	-0.0213
GGAGATGA	0.00971
CCTTCAGA	-0.178
AAGCCTCC	0.122
TCAGGCGA	0.0985
TCCGACCA	-0.0192
ACCACAGT	0.127
AATTGACG	-0.114
AACTACTC	0.00653
CGTAATAC	0.0199
